Assay results pooled from the literature.
A part holds a random share of what one study measured.

Set 1
Target: Histone acetyltransferase KAT6A, winged helix 1, GST fusion (KAT6A, Homo sapiens, UniProt Q92794, residues 1-85)
Technique: protein binding microarray
Molecule type: double-stranded DNA, one strand shown
Matrix: in vitro
Tested at: not given
Notes: 8-mer, flanks averaged, mean of 2 arrays, mostly near background
Relative to: not given
Direction: higher = stronger binding
Target sequence (chain): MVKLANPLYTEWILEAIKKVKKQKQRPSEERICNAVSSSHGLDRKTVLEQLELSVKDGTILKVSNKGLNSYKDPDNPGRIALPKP
Strand	E-score
GAGAAGCC	0.0573
GCTTGCGA	0.0657
CCCACGTA	-0.241
AAGCCCCT	0.0386
ATGGATTC	-0.253
ATGCTGAC	-0.205
CGACCGCG	0.415
ATTTAAAT	-0.155
ATAGTTAG	-0.026
GGAAATCC	0.0721
AACAGTGT	-0.15
GAGCGGAA	0.179
ACAAAAAG	-0.0528
CGTGGATA	0.106
AGGTGTGA	-0.102
ACCTACAG	-0.024
ATTCGTTG	-0.196
ATCAAGAT	-0.192
CACCGCGA	0.261
ACATGGAT	-0.093
CATGTAGA	-0.167
ACCAATAG	0.00808
CCTAAATC	-0.173
GGAATACC	0.0313
GTTGGTCA	-0.112

Set 2
Target: RING finger protein unkempt homolog, zinc fingers 1-6, GST-SBP tag (UNK, Homo sapiens, UniProt Q9C0B0, residues 30-357)
Chain of UniProt Q9C0B0 (30-357, looked up): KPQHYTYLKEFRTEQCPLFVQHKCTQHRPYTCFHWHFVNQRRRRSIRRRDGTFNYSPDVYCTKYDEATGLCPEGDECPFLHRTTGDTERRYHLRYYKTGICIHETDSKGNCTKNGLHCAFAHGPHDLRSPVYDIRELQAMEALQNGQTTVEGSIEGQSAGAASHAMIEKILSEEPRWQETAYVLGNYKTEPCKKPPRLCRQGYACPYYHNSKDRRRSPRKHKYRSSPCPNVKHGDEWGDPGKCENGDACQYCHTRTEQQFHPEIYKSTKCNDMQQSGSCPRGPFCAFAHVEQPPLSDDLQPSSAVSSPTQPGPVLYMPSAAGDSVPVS
Technique: RNA Bind-n-Seq
Molecule type: RNA
Matrix: in vitro
Tested at: not given
Notes: RNA with constant flanks, human and mouse sites, ends assumed
Relative to: input RNA pool
Direction: higher = stronger binding
All sequences stand within: GGGAGUUCUACAGUCCGACGAUC … CAACAGAGGAUUGAGCAUCA
Strand	bound/input enrichment [ratio]
CUACUUUAGAGGAUUUCAGCCUUGAUGUUUUAAUAUCCUAGGCCUCUGCUGUAAUAAGAUUUUAGACAAAUGUUUGGAAUUUAAGAAGCAACUCAUGUUACUAAUUUGUAUAGCCCAUAU	1.79
UGCAUUCGCAAAGCAAAGAUCUCUGCUGUUGCUUUCCGGAAAGCUUUCUGCCACCACAAGUUAGUGGAACUUGAUGCCACAGGUGUGAAUGCUGAUAUCACGAUUACAGACAUUAUCAGU	0.132
UUAGAUGUGACUGUACAGUCCUUUGGAUGGUCUGAUAGAGCAAAGGUAAAAACAGAUGAUAUAGCAAGAAUUUAUCAGCCUAAGCGUUAUGCUUUGUCACCCAAGACAACGAUUACAAUG	0.294
AAUAAUUCCCUAAUGCUUGAUAAAAUCAUUGGUGAAAAAAGGAGGCGAAUACAGAUCACAAUAUUAUCAUACCACUCUUCAAUUGGAGUAAGAAAAGAUGAACUAGUUCAUGGGUAUAUA	0.18
ACACCUUUGGCCAACAUUUCUUCUGAGUAUCCAAUGCAAAGAUCCAUGCCAGUGGUGCCAUCUUUUGUAGCCAGCAACAGAGCAGAUGAAAAUGCCGCUGCAUACUUUGAGAGUCCUAAU	0.167
UUUGCCUUGCCUGAAGAAGGACCGCGUGGAGAUGAGAGGGAGGAGAUUGUCCACAUUGUUGAGGAAGAAGUCGUUGAGGAAGAGGAGGAAGUCCAAGAUGAAGAAGUCCAAAGUCAGUCU	0.177
UGGACUCACGUUGGACCUACUCCUGCGAUAACUAUUAAGGAAACAGUUGCCAACCACUUGUAGUUACAAAACCAAACCUGGGACAUACUUACUUCGCAGGUAUAAAGCCUCAGUUUUAAC	0.245
UUGGGUGGUAUUGAUGGAGUUGGUGGAUUUUCCUCCAAGUGAUUAAAUGAAAUUUGACGUAUCUUUUCAUCCAAAGUUUUGUACAUCAUGUUUUCUAACGGAAAAAAAUGUUAAUAUGGC	0.302
UUAUUUAAGCAUUGAGUGCAUUAGAAUUUAUUUACAGAGUGCAUGAUGUUCUGACUCUAGUUUAGAUUUAUUUAAGAAACCAAAUCUCCAGAUUUUUUCAGGACACAGGAUCUUAGACUU	2.54
CAUGGACAUCAUAAAAUGGAACUUCCAGAUUAUAGACAAUGGAAGAUAGAAGGGACACCAUUAGAAACUAUCCAGAAGAAGCUGGCUGCAAAAGGGCUAAGGGAUCCAUGGGGCCGCAAU	3.72
AGCCGCCCCUUCGCCAAGGUCACCGUCUGCUUCCCACCUGACCCUACUGCCCCGGCCUCCGCCUGGAAGCCGGCUGGGCUCCCACCUCCCGCCUUCCGCCGCUCUGAGCCCUUCCUGGCA	0.194

Set 3
Target: RNA binding protein fox-1 homolog 2, RRM domain, GST-SBP tag (RBFOX2, Homo sapiens, UniProt O43251-10, residues 100-194)
Technique: RNA Bind-n-Seq
Molecule type: RNA
Matrix: in vitro
Tested at: 365 nM
Notes: natural RNA segment, single round, ends assumed
Relative to: no-protein control
Direction: higher = stronger binding
All sequences stand within: GGGAGUUCUACAGUCCGACGAUC … UGGAAUUCUCGGGUGCCAA
Target sequence (chain): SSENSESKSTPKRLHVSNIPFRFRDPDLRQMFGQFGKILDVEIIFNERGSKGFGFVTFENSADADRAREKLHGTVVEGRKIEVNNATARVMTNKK
Strand	RBNS enrichment (R)
ACAAACAUAAAAAUGGUUUCUCUUCUCAAUCUUCUAAAGUCUGCCUGCCUUUUCCAGGGGUAGGUCUGUUUCUUUGCUGUUCUAUUGUCUUGAGAGCACAGACUAACACU	0.613
CGGUAAAAUGCUGUGACUGUUUACUUUCAAUUGCAUUGUGUGUUGCCUGUGACUGCUUUCAAACGCUAGAGGGGGCCUCUGAUUUAAAGAAAUAAAAAGGACUUUUCUAA	8.44
GUUCACUCUGCUUCCCAACAGUGUAAAUGCAUAGCAGUGUUUACCUGCAUGAGAACUAUGCACUAAUCUAUCUGAAGAAAAAAAAAAACUAUAUCAACUUUGGUAUCUAC	1.46
AUGCUAUAGCCUUCAUGUGGGUGCUACCUAGAGCAGGCGUGAACUGCUGGGUGGUGAUUGUGAGUUCAGACAAUAAAAAAAAUGUAUUUUUUUCAAUACUGUAUAAAAAU	0.568
AGAUGCCAAGAUGCUGCCUACGUUUGCAAAAGUUGUCUAAGAAUUCACCAUGAGCUAUAUUUUCUUCUGGAUCUUUGACCAAGGUGAUGUCAGCUUAUUUCUGGGGAAGG	0.717
UGUAUAGAUUGUGCAUUAAAAGCUGUUACCAAGUUGUCAGAACAUAAGAGCGAAAACAAGGUCAUAUGUAAUAUUUUGUUUGUAAGUAUCCUUUGUAUCAUAGCAAAGGA	0.623
AGAUUCAUUCCACUUGAAGUGUCUCCUGGGAUCCCCACAGCUGCGUAUGGCUGGGAAAUGGACUUAAGGCUUGGGCUUGAAUUGGUGGCUCCUACCUGUGAGGUCCCAUC	0.285
AGCUGUGAUUGAGUGUGCUAUUAUUUGGAAGGAGAAAAUGUAAAUUGAGAUAGCUGUAGUGUUUAUGCCAGAAGUCUCUGGGGACAUCUACUGCUUGUGUCUCUUUGGUG	2.75
GAAGGUCCUCAGAACAUCCUCCAGCAGUGAGUGGCCCAGCGAGCCCAGCAAGGGUGACUCACUAGACUCAGGAUGUAGCCUGAGCAGUGUCACCCAGAGUAGCGGCUGCC	0.248

Set 4
Target: Interferon regulatory factor 5, full length, phosphomimetic (IRF5, Homo sapiens, UniProt Q13568-2, residues 1-514, K96S/S451D/S453D/S456D/S462D)
Technique: protein-binding microarray
Molecule type: double-stranded DNA, one strand shown
Matrix: in vitro
Tested at: 250 nM
Notes: 60-bp whole probe
Added: salmon DNA 0.4 mg/ml
Relative to: random background probes
Direction: higher = stronger binding
All sequences stand within: GCCTAGCAC … GTCTTGATTCGCTTGACGCTGCTG
Strand	log fluorescence [z-score]
TTAGGACTGGGGTATCGCTTAGTGCTA	0.0128
GACGGTTTCAGTCTCGAGACGTGCTAG	3.54
GACGGTTTCGGGGATCGGGACGTGCTA	4.68
ATAGGTATCGGGACTGGGTTAGTGCTA	1.38
TTAGGTATCCTACTGCATTAGTGCTAG	-0.117
TCAACACTAGTTTTCATACTGTGCTAG	1.17
TTAGCTTTCGGGTTTCGATTAGTGCTA	10.5
GCCGGTCTCGGACTGGGGACGTGCTAG	-0.404
TTAGGACTGGGGACTGGGTTAGTGCTA	-0.482
TCAAGCATGGATCTGGGACTGTGCTAG	-0.613
TTAGATCTCAGACGGGATTAGTGCTAG	-0.0321
GACGGTTTCAGACTGGGGACGTGCTAG	0.609
GACGGTATCGGGGCTGGGGACGTGCTA	0.979
GACGATCTCAGTCTCGGGACGTGCTAG	-0.109
GACGATTCTAGTTTCGAGACGTGCTAG	5.99
TTAGGACTGGGGTTTCTGTTAGTGCTA	1.04
TACGGACTGGGTATCGGGACGTGCTAG	0.316
CTGCTGCAGGCAGCACGCTGGTGCTAG	-0.703
GACGGTTTCTTTTTCCTGACGTGCTAG	1.54
TTAGATCTTAGTTTCGATTAGTGCTAG	10.1

Repeated from above (set 1):
Strand	E-score
ACAAAAAG	-0.0528
ATGGATTC	-0.253
CACCGCGA	0.261
ATCAAGAT	-0.192
ATGCTGAC	-0.205
ACCAATAG	0.00808
CCTAAATC	-0.173
GGAAATCC	0.0721
